Experimental data of several laboratories.
Parts stem from different laboratories: compare values within a part only.
Sequence of UniProt P31751 (whole entry, looked up): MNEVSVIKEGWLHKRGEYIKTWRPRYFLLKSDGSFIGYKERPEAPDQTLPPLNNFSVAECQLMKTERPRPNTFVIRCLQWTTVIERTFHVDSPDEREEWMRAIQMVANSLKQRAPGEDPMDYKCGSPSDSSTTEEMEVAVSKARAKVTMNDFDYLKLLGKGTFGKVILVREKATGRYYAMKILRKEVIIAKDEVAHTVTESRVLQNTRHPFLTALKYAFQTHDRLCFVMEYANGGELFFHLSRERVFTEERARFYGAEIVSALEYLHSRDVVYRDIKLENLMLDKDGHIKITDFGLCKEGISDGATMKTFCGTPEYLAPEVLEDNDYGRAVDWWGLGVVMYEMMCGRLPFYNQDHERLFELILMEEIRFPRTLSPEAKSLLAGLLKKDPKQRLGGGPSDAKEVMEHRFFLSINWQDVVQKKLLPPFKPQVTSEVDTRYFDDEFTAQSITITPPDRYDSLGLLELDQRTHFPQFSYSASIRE
Sequence of UniProt P32298 (whole entry, looked up): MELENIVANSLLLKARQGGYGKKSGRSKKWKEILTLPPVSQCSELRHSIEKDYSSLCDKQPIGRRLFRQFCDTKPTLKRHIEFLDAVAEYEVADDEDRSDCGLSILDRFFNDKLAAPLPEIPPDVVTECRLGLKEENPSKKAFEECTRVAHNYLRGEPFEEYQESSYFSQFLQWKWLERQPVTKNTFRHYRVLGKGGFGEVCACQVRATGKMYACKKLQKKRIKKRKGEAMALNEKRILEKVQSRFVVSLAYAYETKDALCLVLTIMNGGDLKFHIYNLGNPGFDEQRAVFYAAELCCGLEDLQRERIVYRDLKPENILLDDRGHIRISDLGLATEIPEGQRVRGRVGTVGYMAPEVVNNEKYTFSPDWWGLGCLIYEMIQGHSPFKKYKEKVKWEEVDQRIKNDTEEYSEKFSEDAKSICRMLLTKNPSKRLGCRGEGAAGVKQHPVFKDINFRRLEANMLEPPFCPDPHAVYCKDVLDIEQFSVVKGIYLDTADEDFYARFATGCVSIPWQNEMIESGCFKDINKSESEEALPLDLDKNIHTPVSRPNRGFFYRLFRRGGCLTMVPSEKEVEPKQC
Sequence of UniProt Q96D53 (whole entry, looked up): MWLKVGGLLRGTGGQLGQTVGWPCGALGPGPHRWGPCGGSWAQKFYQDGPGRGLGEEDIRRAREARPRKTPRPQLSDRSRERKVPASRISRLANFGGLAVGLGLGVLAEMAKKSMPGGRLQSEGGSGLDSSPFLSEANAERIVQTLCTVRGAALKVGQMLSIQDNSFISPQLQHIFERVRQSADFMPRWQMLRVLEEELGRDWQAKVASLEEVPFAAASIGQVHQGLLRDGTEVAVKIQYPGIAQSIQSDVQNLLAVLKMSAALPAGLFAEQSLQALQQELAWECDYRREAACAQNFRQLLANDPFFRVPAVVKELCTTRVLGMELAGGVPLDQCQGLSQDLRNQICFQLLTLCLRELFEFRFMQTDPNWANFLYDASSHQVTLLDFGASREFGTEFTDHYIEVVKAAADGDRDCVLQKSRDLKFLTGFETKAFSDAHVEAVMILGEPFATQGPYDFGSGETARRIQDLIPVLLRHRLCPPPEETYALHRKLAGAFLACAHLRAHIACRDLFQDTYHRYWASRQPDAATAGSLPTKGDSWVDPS
Sequence of UniProt Q9HBH9 (whole entry, looked up): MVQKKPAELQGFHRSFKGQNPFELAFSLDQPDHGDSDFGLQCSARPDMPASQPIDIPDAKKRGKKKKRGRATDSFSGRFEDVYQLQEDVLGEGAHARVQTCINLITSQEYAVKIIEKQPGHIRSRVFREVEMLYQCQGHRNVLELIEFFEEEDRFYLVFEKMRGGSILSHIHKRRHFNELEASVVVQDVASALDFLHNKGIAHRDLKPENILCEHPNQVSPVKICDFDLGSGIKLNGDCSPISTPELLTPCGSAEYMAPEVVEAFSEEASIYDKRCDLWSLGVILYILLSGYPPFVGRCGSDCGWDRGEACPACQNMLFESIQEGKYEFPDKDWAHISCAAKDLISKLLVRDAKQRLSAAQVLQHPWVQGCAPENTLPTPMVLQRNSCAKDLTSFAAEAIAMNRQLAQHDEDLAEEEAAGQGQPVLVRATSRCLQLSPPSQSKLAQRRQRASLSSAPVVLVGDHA
Sequence of UniProt Q9Y5S2 (whole entry, looked up): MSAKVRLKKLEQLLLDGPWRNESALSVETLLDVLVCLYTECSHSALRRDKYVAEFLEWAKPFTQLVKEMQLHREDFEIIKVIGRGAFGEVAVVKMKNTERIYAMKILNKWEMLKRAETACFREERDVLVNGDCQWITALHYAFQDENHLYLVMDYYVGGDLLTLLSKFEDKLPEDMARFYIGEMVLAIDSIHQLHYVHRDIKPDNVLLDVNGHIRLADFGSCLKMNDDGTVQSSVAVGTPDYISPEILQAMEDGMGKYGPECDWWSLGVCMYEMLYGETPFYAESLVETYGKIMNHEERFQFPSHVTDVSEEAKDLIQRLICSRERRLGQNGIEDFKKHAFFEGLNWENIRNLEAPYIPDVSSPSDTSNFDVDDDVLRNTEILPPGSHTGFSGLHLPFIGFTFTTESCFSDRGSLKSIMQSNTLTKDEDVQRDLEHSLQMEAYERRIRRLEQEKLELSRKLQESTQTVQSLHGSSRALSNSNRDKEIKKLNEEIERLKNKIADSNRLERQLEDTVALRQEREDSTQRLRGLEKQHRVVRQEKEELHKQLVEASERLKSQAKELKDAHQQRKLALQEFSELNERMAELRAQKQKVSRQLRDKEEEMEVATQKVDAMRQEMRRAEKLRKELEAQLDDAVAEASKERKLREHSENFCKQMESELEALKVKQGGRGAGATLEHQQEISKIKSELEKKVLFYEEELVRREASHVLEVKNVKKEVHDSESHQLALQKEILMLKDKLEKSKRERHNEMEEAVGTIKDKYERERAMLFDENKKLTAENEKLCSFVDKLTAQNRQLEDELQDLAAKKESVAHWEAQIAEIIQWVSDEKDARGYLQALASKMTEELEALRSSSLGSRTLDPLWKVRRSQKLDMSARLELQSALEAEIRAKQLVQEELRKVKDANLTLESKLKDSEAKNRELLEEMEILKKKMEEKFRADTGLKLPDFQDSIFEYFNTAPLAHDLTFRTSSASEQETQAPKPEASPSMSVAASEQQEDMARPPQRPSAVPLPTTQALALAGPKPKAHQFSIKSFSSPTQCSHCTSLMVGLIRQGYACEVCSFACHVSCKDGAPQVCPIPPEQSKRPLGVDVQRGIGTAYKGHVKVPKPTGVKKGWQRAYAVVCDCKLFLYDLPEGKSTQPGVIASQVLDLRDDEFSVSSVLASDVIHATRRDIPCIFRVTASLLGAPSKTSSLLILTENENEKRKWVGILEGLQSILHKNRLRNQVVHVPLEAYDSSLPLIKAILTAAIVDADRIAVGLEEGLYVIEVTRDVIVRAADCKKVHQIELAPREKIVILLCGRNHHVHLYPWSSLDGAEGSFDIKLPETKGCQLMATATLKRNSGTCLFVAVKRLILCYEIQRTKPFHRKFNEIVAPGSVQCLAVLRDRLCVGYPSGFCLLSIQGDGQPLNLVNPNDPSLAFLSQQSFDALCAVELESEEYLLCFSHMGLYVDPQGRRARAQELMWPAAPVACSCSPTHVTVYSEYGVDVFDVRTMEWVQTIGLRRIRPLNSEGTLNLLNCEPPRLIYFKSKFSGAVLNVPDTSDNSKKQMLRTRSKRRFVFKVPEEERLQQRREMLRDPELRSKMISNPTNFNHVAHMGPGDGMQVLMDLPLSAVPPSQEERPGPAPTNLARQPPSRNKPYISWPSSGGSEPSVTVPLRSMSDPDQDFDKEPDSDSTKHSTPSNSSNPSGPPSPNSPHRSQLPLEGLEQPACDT

Series 1
Host: mouse
Matrix: microsomes or S9
Tested at: 2 µM
Time: 0.5 h
`CC(C)(C)OC(=O)N1CCCC1C(=O)NC(CC1=NOC(C(N)=O)C1)c1ccccc1` (stereo not drawn) gave a remaining compound of 40.3%.
`Cc1nc(OCCN2CCOCC2)c(C#N)c2c1COC(C)(C)C2` gave a remaining compound of greater than 100%.
For `O=C(CC1c2ccccc2Oc2ccccc21)N1CCCC1c1nc(-c2ccncc2)n[nH]1` (stereo not drawn), the remaining compound was 41.4%.
`O=C(Cn1nc2c(cc1=O)CCCC2)NCC1CCC(C(=O)O)CC1` (stereo not drawn) gave a remaining compound of 89.7%.
With `Nc1oc(=O)c2ccccc2c1N1CCCc2ccccc21` the remaining compound was 32.7%.

Series 2
Target: His6 tag
Method: AlphaScreen counter screen
Tested at: concentration not given
`Clc1cccc(Nc2cncc(-c3cccnc3)c2)c1` has an inhibition of 2.75%.
With `O=C(CSc1ccc2nnc(-c3cccc(F)c3)n2n1)NCC1CCCO1` (stereo not drawn) the inhibition was 8.7%.
`COc1ccc(Cl)cc1C(=O)Nc1ccc2[nH]ncc2c1` has an inhibition of 8.65%.
With `N#CC(C(=O)C1CC1)=C1Nc2ccccc2S1` the inhibition was 17.1%.
With `COC(=O)c1sc2nc[nH]c(=O)c2c1C` the inhibition was 4.35%.
`c1coc(-c2[nH]c3ncccc3c2CN2CCOCC2)c1` gave an inhibition of 3.4%.

Series 3
SMILES: CN([C@@H](Cc1ccc(OS(=O)(=O)c2cccc3cnccc23)cc1)C(=O)N1CCN(c2ccccc2)CC1)S(=O)(=O)c1cccc2cnccc12
Read-out: enzyme activity
Action: inhibitor
Tested at: 0.5 µM
Baseline: control
It gave 106% for remaining activity (AKT2 (Homo sapiens, UniProt P31751)).
It gave 102% for remaining activity (CAMK4 (Homo sapiens, UniProt Q16566)).
For TLK2 (Homo sapiens, UniProt Q86UE8): remaining activity read 100%.
For CDC42BPB (Homo sapiens, UniProt Q9Y5S2): remaining activity read 103%.
It gave 103% for remaining activity (MARK2 (Homo sapiens, UniProt Q7KZI7)).
For CLK4 (Homo sapiens, UniProt Q9HAZ1): remaining activity read 97.2%.
For GRK4 (Homo sapiens, UniProt P32298): remaining activity read 96.5%.
The remaining activity was 99.8% (NEK3 (Homo sapiens, UniProt P51956)).
KDR (Homo sapiens, UniProt P35968) — remaining activity: 100%.
The remaining activity was 102% (PAK3 (Homo sapiens, UniProt O75914)).
The remaining activity was 98.7% (RPS6KA4 (Homo sapiens, UniProt O75676)).

Series 4
Structure (SMILES): CCS(=O)(=O)c1cc2cc(C[C@](O)(CC(C)(C)c3ccc(F)cc3C(N)=O)C(F)(F)F)[nH]c2cn1
Read-out: cell-free assay
Method: competition with immobilised ligand
Tested at: 1 µM
It gave 83% for remaining binding (SRPK1 (Homo sapiens, UniProt Q96SB4)).
It gave 100% for remaining binding (CDK11A (Homo sapiens, UniProt Q9UQ88)).
The remaining binding was 82% (SRPK2 (Homo sapiens, UniProt P78362)).
For MKNK2 (Homo sapiens, UniProt Q9HBH9): remaining binding read 100%.
For EGFR (Homo sapiens, UniProt P00533, L858R/T790M): remaining binding read 83%.
The remaining binding was 100% (MET (Homo sapiens, UniProt P08581, M1250T)).
The remaining binding was 91% (FLT3 (Homo sapiens, UniProt P36888, ITD)).
For PIK3CA (Homo sapiens, UniProt P42336, E545K): remaining binding read 80%.
AKT2 (Homo sapiens, UniProt P31751) — remaining binding: 94%.
It gave 80% for remaining binding (PIK3CG (Homo sapiens, UniProt P48736)).
The remaining binding was 100% (MET (Homo sapiens, UniProt P08581, Y1235D)).
For PRKCI (Homo sapiens, UniProt P41743): remaining binding read 100%.
STK36 (Homo sapiens, UniProt Q9NRP7) — remaining binding: 100%.
The remaining binding was 100% (CILK1 (Homo sapiens, UniProt Q9UPZ9)).
It gave 71% for remaining binding (ZAP70 (Homo sapiens, UniProt P43403)).
For ERBB4 (Homo sapiens, UniProt Q15303): remaining binding read 100%.
The remaining binding was 78% (COQ8B (Homo sapiens, UniProt Q96D53)).
It gave 99% for remaining binding (NEK9 (Homo sapiens, UniProt Q8TD19)).
It gave 93% for remaining binding (Tyrosine-protein kinase ABL1, phosphorylated (ABL1, Homo sapiens, UniProt P00519, Y253F)).

Other studies, line by line
The Arrhythmia incidence of `CC(C)n1cnc(-c2ccc(F)cc2)c1-c1ncc(C(=O)Nc2ccc(N3CCN(C)CC3)cc2)[nH]1` is reported as 0% (IPF patients; 60 mg once daily, adverse event).
